Published values pooled from the literature.
Every numbered part comes from another study and shows a few of its results, in no order. Several values in a cell are separate wells, animals, samples, runs or records.
Sequence of UniProt Q99640 (whole entry, looked up): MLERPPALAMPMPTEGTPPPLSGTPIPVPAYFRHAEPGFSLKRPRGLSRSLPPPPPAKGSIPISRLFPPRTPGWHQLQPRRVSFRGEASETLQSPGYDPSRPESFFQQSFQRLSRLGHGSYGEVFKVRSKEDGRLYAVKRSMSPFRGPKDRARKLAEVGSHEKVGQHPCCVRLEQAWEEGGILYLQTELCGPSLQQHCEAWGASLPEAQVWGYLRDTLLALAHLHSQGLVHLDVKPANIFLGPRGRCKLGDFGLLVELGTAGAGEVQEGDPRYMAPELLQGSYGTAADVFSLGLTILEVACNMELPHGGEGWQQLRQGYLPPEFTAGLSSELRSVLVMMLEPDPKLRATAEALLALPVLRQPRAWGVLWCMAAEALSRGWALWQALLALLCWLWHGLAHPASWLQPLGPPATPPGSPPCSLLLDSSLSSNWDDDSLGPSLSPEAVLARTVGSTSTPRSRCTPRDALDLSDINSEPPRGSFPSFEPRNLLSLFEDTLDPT
Sequence of UniProt Q96RR4 (whole entry, looked up): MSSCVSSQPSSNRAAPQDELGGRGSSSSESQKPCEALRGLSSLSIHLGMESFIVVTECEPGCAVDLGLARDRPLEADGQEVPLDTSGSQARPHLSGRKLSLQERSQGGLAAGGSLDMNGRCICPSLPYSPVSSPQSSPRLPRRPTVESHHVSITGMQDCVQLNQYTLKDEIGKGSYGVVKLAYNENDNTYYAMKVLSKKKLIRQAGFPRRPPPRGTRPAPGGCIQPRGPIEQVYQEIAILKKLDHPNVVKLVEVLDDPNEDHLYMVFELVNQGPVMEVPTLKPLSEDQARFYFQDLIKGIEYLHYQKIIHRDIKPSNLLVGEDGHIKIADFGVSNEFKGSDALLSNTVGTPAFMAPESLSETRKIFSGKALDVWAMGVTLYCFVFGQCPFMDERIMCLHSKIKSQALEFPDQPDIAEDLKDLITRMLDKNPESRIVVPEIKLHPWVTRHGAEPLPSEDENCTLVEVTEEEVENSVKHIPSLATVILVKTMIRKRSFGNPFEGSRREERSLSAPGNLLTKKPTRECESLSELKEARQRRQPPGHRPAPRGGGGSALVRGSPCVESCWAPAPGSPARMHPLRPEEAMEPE
Sequence of UniProt Q2M2I8 (whole entry, looked up): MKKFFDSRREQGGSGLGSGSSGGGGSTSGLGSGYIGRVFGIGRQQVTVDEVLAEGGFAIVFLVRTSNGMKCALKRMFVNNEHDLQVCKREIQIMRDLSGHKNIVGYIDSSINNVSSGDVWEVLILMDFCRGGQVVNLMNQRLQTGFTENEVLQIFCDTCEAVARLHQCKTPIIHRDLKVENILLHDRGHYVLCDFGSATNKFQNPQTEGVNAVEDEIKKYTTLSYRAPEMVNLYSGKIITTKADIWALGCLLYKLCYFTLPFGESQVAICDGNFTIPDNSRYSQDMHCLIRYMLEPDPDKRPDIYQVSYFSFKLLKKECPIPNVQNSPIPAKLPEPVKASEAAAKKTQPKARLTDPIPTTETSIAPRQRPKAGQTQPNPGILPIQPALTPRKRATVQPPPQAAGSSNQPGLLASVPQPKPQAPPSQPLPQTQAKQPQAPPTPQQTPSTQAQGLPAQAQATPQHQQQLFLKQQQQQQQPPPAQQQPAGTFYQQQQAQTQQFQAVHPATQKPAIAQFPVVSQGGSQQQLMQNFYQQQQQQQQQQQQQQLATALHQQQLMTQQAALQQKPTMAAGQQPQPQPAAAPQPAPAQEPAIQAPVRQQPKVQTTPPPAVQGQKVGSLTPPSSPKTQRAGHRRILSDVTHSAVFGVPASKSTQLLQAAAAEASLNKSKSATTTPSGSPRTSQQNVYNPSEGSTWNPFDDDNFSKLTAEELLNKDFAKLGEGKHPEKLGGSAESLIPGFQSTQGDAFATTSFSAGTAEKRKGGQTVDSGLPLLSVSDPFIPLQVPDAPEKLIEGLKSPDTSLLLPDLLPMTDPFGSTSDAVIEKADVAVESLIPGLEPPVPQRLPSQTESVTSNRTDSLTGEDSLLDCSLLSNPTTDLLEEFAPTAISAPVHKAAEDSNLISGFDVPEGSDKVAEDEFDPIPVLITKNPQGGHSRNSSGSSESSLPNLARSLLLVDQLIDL
Sequence of UniProt Q96BR1 (whole entry, looked up): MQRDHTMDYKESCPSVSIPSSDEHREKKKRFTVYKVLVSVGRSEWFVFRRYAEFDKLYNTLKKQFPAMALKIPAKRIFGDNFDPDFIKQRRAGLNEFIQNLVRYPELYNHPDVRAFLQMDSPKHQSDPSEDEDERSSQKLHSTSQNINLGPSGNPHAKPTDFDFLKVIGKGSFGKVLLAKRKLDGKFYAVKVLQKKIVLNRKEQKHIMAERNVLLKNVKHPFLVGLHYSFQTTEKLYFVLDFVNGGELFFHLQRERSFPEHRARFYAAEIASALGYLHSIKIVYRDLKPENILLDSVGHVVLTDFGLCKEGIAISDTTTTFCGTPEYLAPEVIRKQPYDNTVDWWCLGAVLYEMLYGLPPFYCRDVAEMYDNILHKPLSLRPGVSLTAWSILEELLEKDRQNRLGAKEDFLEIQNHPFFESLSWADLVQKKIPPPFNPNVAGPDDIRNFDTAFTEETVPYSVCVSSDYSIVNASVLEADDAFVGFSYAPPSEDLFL
Sequence of UniProt Q9Y4B6 (whole entry, looked up): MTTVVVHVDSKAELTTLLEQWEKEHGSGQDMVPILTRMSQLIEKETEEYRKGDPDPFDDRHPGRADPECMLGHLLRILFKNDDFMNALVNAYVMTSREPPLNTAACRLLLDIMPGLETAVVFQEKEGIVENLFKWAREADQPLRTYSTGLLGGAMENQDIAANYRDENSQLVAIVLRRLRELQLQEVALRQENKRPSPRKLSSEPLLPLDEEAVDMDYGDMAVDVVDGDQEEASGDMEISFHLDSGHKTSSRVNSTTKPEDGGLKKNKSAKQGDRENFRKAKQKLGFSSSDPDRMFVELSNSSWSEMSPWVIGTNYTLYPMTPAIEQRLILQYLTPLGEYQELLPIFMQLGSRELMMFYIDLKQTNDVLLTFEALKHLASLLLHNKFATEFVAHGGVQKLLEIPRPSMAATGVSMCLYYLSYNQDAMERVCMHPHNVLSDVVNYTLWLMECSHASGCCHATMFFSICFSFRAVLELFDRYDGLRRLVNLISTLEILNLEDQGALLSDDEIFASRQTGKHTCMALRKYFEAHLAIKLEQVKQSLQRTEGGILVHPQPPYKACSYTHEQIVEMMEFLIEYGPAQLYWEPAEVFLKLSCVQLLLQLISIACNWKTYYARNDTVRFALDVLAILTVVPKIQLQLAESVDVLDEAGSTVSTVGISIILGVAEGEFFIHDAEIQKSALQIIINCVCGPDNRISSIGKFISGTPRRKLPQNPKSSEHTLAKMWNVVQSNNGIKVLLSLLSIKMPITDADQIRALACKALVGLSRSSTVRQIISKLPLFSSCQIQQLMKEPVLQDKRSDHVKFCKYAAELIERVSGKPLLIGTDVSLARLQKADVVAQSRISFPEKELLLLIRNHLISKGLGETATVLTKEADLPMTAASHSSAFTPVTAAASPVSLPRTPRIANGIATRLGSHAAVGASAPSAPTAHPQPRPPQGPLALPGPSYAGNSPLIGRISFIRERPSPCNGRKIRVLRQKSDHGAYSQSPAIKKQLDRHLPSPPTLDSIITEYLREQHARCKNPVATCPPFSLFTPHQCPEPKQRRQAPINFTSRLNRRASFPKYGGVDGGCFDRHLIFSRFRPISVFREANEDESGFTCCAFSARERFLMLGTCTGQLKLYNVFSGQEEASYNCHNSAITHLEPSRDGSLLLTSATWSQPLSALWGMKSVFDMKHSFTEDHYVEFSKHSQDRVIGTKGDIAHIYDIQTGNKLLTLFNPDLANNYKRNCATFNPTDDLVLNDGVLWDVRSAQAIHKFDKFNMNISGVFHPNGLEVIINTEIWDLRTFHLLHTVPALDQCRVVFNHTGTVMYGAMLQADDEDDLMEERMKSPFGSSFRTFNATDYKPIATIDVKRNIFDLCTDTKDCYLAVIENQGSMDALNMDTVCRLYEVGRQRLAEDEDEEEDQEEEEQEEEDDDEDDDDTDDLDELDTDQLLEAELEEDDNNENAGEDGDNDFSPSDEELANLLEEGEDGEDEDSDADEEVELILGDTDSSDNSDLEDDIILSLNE
Sequence of UniProt Q13043 (whole entry, looked up): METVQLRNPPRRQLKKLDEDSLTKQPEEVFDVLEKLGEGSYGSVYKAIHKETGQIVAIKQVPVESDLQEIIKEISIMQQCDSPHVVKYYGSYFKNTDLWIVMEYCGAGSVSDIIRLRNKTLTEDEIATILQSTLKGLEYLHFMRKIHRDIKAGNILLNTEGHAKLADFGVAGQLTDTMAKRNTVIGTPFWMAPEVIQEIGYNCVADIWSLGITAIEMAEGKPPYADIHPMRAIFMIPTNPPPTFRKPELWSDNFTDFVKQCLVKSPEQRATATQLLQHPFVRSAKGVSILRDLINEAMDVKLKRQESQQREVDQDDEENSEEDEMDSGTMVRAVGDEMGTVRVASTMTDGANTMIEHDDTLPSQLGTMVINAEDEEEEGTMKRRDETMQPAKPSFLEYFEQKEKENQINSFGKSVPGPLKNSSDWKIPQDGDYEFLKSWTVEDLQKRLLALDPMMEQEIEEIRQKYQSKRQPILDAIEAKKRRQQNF
Sequence of UniProt Q9UBE8 (whole entry, looked up): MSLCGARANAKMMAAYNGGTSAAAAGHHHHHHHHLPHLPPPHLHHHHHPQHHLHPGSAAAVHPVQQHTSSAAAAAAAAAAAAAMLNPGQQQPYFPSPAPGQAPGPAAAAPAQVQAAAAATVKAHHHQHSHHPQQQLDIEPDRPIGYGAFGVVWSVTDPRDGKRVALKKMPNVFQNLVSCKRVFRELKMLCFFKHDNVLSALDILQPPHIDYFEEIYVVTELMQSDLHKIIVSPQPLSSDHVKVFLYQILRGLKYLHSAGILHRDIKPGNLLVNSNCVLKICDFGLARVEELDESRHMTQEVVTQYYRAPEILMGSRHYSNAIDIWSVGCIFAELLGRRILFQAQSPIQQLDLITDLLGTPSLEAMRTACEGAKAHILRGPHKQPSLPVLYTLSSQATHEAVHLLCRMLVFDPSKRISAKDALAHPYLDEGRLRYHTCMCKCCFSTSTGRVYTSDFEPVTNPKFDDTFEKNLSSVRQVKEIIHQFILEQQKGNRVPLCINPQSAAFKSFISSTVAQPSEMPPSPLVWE

Set 1
SMILES: COCC1CC2C(CCC3C(O)CCC32)c2ccc(O)cc21 (stereo not drawn)
Measurement: mRNA level ratio
A549; DNA microarray, item: CCL8; 25 µM; baseline: untreated cells: 1
PANC-1; microarray, item: CCL11; 25 µM; baseline: untreated: 103
SK-OV-3; microarray, item: CCL11; 25 µM; baseline: untreated: 226
PANC-1; DNA microarray, item: ACTB; 25 µM; baseline: untreated cells: 0.869 and 0.865 and 0.849 and 0.878 and 0.818
SK-OV-3; microarray, item: OLIG2; 25 µM; baseline: untreated: 1
A549; microarray, item: CCL11; 25 µM; baseline: untreated: 553
PANC-1; DNA microarray, item: C6; 25 µM; baseline: untreated cells: 205
SK-OV-3; microarray, item: RFC3; 100 µM; baseline: untreated: 0.95
PANC-1; DNA microarray, item: TMEM108; 100 µM; baseline: untreated cells: 1.67
SK-OV-3; DNA microarray, item: C6; 100 µM; baseline: untreated cells: 352
A549; DNA microarray, item: GINS1; 100 µM; baseline: untreated cells: 0.85
A549; DNA microarray, item: ACTA2; 25 µM; baseline: untreated cells: 0.898
PANC-1; microarray, item: OLIG2; 100 µM; baseline: untreated: 1
SK-OV-3; DNA microarray, item: MCM10; 25 µM; baseline: untreated cells: 0.951
PANC-1; DNA microarray, item: KIF20A; 100 µM; baseline: untreated cells: 1.43 and 1.45 and 1.44
SK-OV-3; DNA microarray, item: KIF20A; 25 µM; baseline: untreated cells: 1 and 1.01 and 0.937 and 0.949 and 0.942
SK-OV-3; microarray, item: CDC25B; 25 µM; baseline: untreated: 1.17

Set 2
SMILES: CC[C@@]1(c2ccccc2)C2=C(CC(C)(C)CC2=O)Nc2n[nH]cc21
Concentration: 1 µM
Measurement: remaining binding
CLK2 (Homo sapiens, UniProt P49760); binding, competition with immobilised ligand: 100%
KIT (Homo sapiens, UniProt P10721, D816V); kinase binding, KINOMEscan; baseline: DMSO control: 100%
CAMK2D (Homo sapiens, UniProt Q13557); kinase binding, KINOMEscan; baseline: DMSO control: 94%
PIK3CA (Homo sapiens, UniProt P42336, E545K); binding, competition with immobilised ligand: 61%
SGK3 (Homo sapiens, UniProt Q96BR1); binding, competition with immobilised ligand: 100%
TESK1 (Homo sapiens, UniProt Q15569); binding, competition with immobilised ligand: 100%
AAK1 (Homo sapiens, UniProt Q2M2I8); kinase binding, KINOMEscan; baseline: DMSO control: 90%
TAOK2 (Homo sapiens, UniProt Q9UL54); binding, competition with immobilised ligand: 92%
ROCK2 (Homo sapiens, UniProt O75116); binding, competition with immobilised ligand: 77%
PLK4 (Homo sapiens, UniProt O00444); binding, competition with immobilised ligand: 100%
MUSK (Homo sapiens, UniProt O15146); binding, competition with immobilised ligand: 100%
STK4 (Homo sapiens, UniProt Q13043); binding, competition with immobilised ligand: 100%
Ribosomal protein S6 kinase alpha-6, C-terminal kinase domain (RPS6KA6, Homo sapiens, UniProt Q9UK32); binding, competition with immobilised ligand: 98%
NLK (Homo sapiens, UniProt Q9UBE8); binding, competition with immobilised ligand: 100%
RAF1 (Homo sapiens, UniProt P04049); kinase binding, KINOMEscan; baseline: DMSO control: 100%
CAMKK2 (Homo sapiens, UniProt Q96RR4); kinase binding, KINOMEscan; baseline: DMSO control: 91%
PDPK1 (Homo sapiens, UniProt O15530); binding, competition with immobilised ligand: 100%
LRRK2 (Homo sapiens, UniProt Q5S007, G2019S); kinase binding, KINOMEscan; baseline: DMSO control: 77%

Set 3
SMILES: C[C@@H]1CN(c2ccc(-c3cc(C(=O)NCCOCCOCCOCCOCCNC(=O)Cn4cc(-c5[nH]cc(C(=O)N[C@@H](CC(N)=O)c6ccc(F)c(Cl)c6)c5-c5ccc(Cl)cc5F)cn4)ccc3F)cc2NC(=O)c2c[nH]c(=O)cc2C(F)(F)F)C[C@H](C)N1C
Effect on: thermal unfolding
Method: differential scanning fluorimetry
Concentration: 5.5 µM
Reading: higher = more unfolded
Measurement: SYPRO Orange fluorescence
WDR5: WD repeat-containing protein 5 (WDR5, Homo sapiens, UniProt P61964)
WDR5; 88.81 °C: 43600 a.u.
WDR5; 93.41 °C: 39800 a.u.
DCAF1 (Homo sapiens, UniProt Q9Y4B6); 64.61 °C: 55300 a.u.
WDR5; 50.8 °C: 14400 a.u.
WDR5; 75.81 °C: 12600 a.u.
WDR5; 79.01 °C: 20200 a.u.
WDR5; 29.2 °C: 14900 a.u.

Set 4
SMILES: Cc1ccc(O)c(C)c1-c1cnc2[nH]c(-c3cnc(N4CCC5(CC4)CC(N4CCN(c6ccc(N[C@H]7CCC(=O)NC7=O)cc6F)CC4)CO5)nc3)cc2c1C#N (single isomer, unassigned)
Measurement: inhibition
NCI-H1568; cell proliferation; 3333.33 nM: 79.9% and 78.5%
NCI-H1568; cell proliferation; 123.5 nM: 5.37% and 7.12%
MKN-1; cell proliferation; 4.572 nM: -2.97% and 2.73% and -6.87%
KLE; cell proliferation; 41.15 nM: -2.65% and 1.11% and -2.41%
NCI-H1568; cell growth; 123.5 nM: 8.92%
NCI-H1568; cell growth; 1111.11 nM: 40.4%
PKMYT1 (Homo sapiens, UniProt Q99640); binding, HTRF; 370.37 nM: 99.8% and 97.3%
PKMYT1; KINOMEscan; 1000 nM: 100%
PKMYT1 (Homo sapiens, UniProt Q99640); enzyme activity, inhibitor; 13.72 nM: 81.3%

Excerpt of the above (set 4):
NCI-H1568; cell growth; 123.5 nM: 8.92%
PKMYT1 (Homo sapiens, UniProt Q99640); binding, HTRF; 370.37 nM: 99.8% and 97.3%
NCI-H1568; cell proliferation; 123.5 nM: 5.37% and 7.12%
PKMYT1 (Homo sapiens, UniProt Q99640); enzyme activity, inhibitor; 13.72 nM: 81.3%
KLE; cell proliferation; 41.15 nM: -2.65% and 1.11% and -2.41%
PKMYT1; KINOMEscan; 1000 nM: 100%
NCI-H1568; cell proliferation; 3333.33 nM: 79.9% and 78.5%
